Experimental data from different studies.
Compare with care: the assays were run in different laboratories.
Target: SRSF protein kinase 3 (SRPK3, Homo sapiens, UniProt Q9UPE1)
UniProt Q9UPE1, sequence (whole entry, looked up): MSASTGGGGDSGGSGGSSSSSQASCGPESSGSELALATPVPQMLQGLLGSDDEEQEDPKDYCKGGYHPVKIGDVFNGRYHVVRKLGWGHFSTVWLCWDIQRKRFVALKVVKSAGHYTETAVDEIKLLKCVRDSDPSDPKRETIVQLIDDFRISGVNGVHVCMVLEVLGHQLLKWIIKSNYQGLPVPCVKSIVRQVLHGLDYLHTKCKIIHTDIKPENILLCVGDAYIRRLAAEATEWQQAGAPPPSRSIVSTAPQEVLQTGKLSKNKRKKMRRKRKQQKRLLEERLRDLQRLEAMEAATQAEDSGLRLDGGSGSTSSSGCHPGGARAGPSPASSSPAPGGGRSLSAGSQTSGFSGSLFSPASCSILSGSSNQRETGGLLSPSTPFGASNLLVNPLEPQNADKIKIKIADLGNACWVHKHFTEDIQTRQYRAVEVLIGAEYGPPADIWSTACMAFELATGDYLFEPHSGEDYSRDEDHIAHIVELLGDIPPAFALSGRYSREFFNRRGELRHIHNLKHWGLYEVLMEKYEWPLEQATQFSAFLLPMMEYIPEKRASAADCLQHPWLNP

| SMILES | assay | setting | how to read | endpoint | result |
| --- | --- | --- | --- | --- | --- |
| CC(C)c1ccc(NC(=O)Nc2ccccc2)cc1 | binding, KINOMEscan competitive binding | concentration not given | – | inhibition | 25% |
| CN1CCN(Cc2ccc(NC(=O)c3cccc(C#Cc4cnc(N)c5ncccc45)c3)cc2C(F)(F)F)CC1 | cell-free assay, competition with immobilised ligand | 50 nM | – | remaining binding | 100% |
| CC(=O)N1c2ccc(-c3ccc(CNC(=O)c4cn5cc(-c6cnc(N)nc6)nc(N6CCOCC6)c5n4)cc3)cc2CC[C@@H]1C | KINOMEscan | 10 µM | – | remaining binding | 89% |
| N#Cc1ccc(NC(=O)Nc2ccccc2)cc1 | enzyme activity, inhibitor, FRET | 10 µM | – | inhibition | 51.5% |
| Nc1ncc(-c2cc(-c3cnn(CC(F)(F)F)c3)ncc2F)nc1C(=O)NC1CNCC(F)C1 (stereo not shown) | enzyme activity | 1 µM | baseline: DMSO control | remaining activity | 97.5% |
| Cc1ccc(-c2c(/C=C(\C#N)C(=O)NC(C)C)n(CCCO)c3ncnc(N)c23)cc1 | cell-free assay, competition with immobilised ligand | 1 µM | – | remaining binding | 72% |
| COc1c(OCCCN2CCOCC2)ccc2c1N=C(NC(=O)c1cnc(N)nc1)N1CCN=C21 | kinase activity, inhibitor | 1 µM | baseline: untreated control | remaining activity | 106% |
| Cc1ccc(NC(=O)Nc2ccc(C#N)cc2)cc1 | binding, KINOMEscan competitive binding | concentration not given | – | inhibition | 36% |
| CC(C)=CC1OC(C)(C)C2C=C3C(=O)C(Cl)=CC(O)C3C3C(O)C4OC4C(=O)C132 (stereo not shown) | cell-free assay, competition with immobilised ligand | 10 µM | – | remaining binding | 78% |
| COc1cccc(NC(=O)Nc2ccccc2)c1 | binding, KINOMEscan competitive binding | concentration not given | – | inhibition | 89% |
| Cc1cccc(O[C@H]2CCC[C@@H](C(C)CNCc3ccncc3)C2)c1 (relative stereo) | enzyme activity, inhibitor | 10 µM | – | inhibition | -4% |
| CCN1CCN(Cc2ccc(C(=O)Nc3ccc(C)c(NCc4cnc5[nH]ccc5c4OC)c3)cc2C(F)(F)F)CC1 | binding, competition with immobilised ligand | 1 µM | – | remaining binding | 98% |
| Cc1cnc2nc1Nc1cccc(c1)COC/C=C/COCc1cc(ccc1OCCN1CCOCC1)N2 | binding, competition with immobilised ligand | 0.1 µM | – | remaining binding | 94% |
| CNC(=O)C1CCN(c2cc(C)c(F)cc2NC(=O)c2ccc(-c3cc(O)ccc3C)c(C)c2)CC1 | binding, competition with immobilised ligand | 1 µM | – | remaining binding | 84% |
| COc1ccc(NC(=O)Nc2ccc3c(c2)C(=O)N(C(C)CO)CC(C)C(CN(C)Cc2ccc4c(c2)OCO4)O3)cc1 (stereo not shown) | kinase activity, KinaseProfiler | 0.03 µM, species human | baseline: control | remaining activity | 95% |
| COc1cc(Nc2nccc(-c3cnn4nc(OC)ccc34)n2)cc(C(F)(F)F)c1 | binding, competition with immobilised ligand | 1 µM | – | remaining binding | 98% |
| CN(C(=O)N(C)c1ccc(C#N)cc1)c1ccccc1 | binding, KINOMEscan competitive binding | concentration not given | – | inhibition | 0% |
| C=CC(=O)N1CCCC(n2c(=O)c3ncccc3n(Cc3ccc(Oc4ccccc4)cc3)c2=O)C1 (stereo not shown) | cell-free assay, competition with immobilised ligand | 1 µM | – | remaining binding | 100% |
| CNC1C[S+]2CC[S+]3CC[S+](C1)[Ru-4]321([N]=C=S)[n]2c3ccc(OC)cc3c3c4c(c5cc(F)c[n+]1c5c32)C(=O)NC4=O (stereo not shown) | KinomeScan | 0.1 µM | baseline: untreated | remaining binding | 93% |

For quick reference, copied from above:
| SMILES | assay | setting | how to read | endpoint | result |
| --- | --- | --- | --- | --- | --- |
| Cc1cccc(O[C@H]2CCC[C@@H](C(C)CNCc3ccncc3)C2)c1 (relative stereo) | enzyme activity, inhibitor | 10 µM | – | inhibition | -4% |
| CCN1CCN(Cc2ccc(C(=O)Nc3ccc(C)c(NCc4cnc5[nH]ccc5c4OC)c3)cc2C(F)(F)F)CC1 | binding, competition with immobilised ligand | 1 µM | – | remaining binding | 98% |
